Results gathered from unrelated publications.
Each line is one published result; not all experiments were run side by side. ± gives the spread as reported.

| Compound | target or system | test | test system | conditions | scale | endpoint | value |
| --- | --- | --- | --- | --- | --- | --- | --- |
| CCCCN1C(=O)c2cccc3c(NCCCCCCN4CCOCC4)ccc(c23)C1=O |  |  | ethylene glycol |  |  | absorption maximum | 448 nm |
| O=C(Nc1cnccc1-c1ccc([18F])cc1)c1ccnc(NC(=O)C2CC2)c1 |  | PET imaging | FVB/NJ mice, both sexes, brain | intravenous, 120 min post-injection |  | median SUV | 0.1 |
| CCCC[C@H](NC(=O)CCCCCCCNC(=O)CN1CCN(CC(=O)O)CCN(CC(=O)O)CC1)C(=O)N[C@H]1CC(=O)NCCCC[C@@H](C(N)=O)NC(=O)[C@H](Cc2c[nH]c3ccccc23)NC(=O)[C@H](CCCNC(=N)N)NC(=O)[C@@H](Cc2ccccc2)NC(=O)[C@H](Cc2c[nH]cn2)NC1=O [fluorine-18 labelled] |  |  | C57 mice, B16/F10 melanoma, urine | intravenous, 0.37 MBq, 2 h |  | urinary excretion | 75.77 ± 0.75% |
| COc1cccc(OC)c1-c1cc(C(=O)NC2(C(=O)O)C3CC4CC(C3)CC2C4)nn1-c1ccc(C(=O)N(C)CCOCCN(C)C(=O)[C@H](CCCCNC(=O)[C@H](CC(C)C)NC(=O)C2OC2C(=O)O)NC(=O)CN2CCN(CC(=O)[O-])CCN(CC(=O)[O-])CCN(CC(=O)[O-])CC2)cc1C(C)C.[177Lu+3] (mixture of isomers) |  |  | mouse, HT-29 xenograft | 24 h post injection, biodistribution | reference: tumour over liver uptake | tumour-to-liver ratio | 3.37 |
| O=C(NCCN1C(=O)CCC1=O)[O][Pt]12([O]C(=O)NCCN3C(=O)CCC3=O)([NH][C@@H]3CCCC[C@H]3[NH]1)[O]C(=O)C(=O)[O]2 |  | AUC-based, measured: platinum | BALB/c mice, CT26 tumour | iv | reference: tumour over liver | tumour to organ ratio | 0.1 |
| COC1C=COC2(C)Oc3c(C)c(O)c4c(c3C2=O)C2=NC3(CCN(CC(C)C)CC3)NC2=C(NC(=O)C(C)=CC=CC(C)C(O)C(C)C(O)C(C)C(OC(=O)Nc2cnccn2)C1C)C4=O (stereo not drawn) |  |  | CD-1 mouse female, plasma | intravenous, 5 mg/kg |  | clearance | 2.2 mL/min/kg |
| CC(=O)[O-].O.O.O.O.[Co+2].[O-]c1ccc(Br)cc1C=NCCN1CCOCC1 |  | nitric oxide scavenging |  | 80 µM |  | inhibition | 20.9% |
| O=C(Nc1cnccc1-c1ccc([18F])nc1)c1ccnc(NC(=O)C2CC2)c1 |  | PET imaging | FVB/NJ mice, both sexes, brain | intravenous, 60 min post-injection, P-gp inhibited, added: tariquidar 15 mg/kg iv, 2 h before |  | median SUV | 0.142 |
| COc1ccc2c(c1)C(=O)C(=C[O-])C2.[Na+] |  | chemical stability, HPLC-MS | borate buffered saline | pH 10.2, no N-acetyl-lysine |  | degradation rate constant | 0 h⁻¹ |
| C=CC(=O)Nc1cccc(Cn2ncc3cnc(Nc4cnn(CCOC)c4)nc32)c1 | YSK4 human | binding, KINOMEscan |  | 100 nM | lower = stronger binding | percent of control | 1.4% |
| C#CC(C)NC(=O)C(CC(C)(C)F)NC(c1ccc(-c2ccc(S(C)(=O)=O)cc2)cc1)C(F)(F)F (stereo not drawn) |  |  | PBS | 100 µM, 23 h, pH 7.45, 37 °C, added: GSH 5 mM |  | GSH adduct formation | 2% |
| Cc1cc(-c2ccc(C(=O)[C@@H]3CCCC[C@H]3C(=O)Nc3cnn4c3C(=O)NCC4)cc2)[nH]n1 |  |  | human, faeces | oral, 200 mg, 288-312 h, discharged subjects excluded | reference: dose | recovery of radioactivity per interval | 0.06% |
| CCCCN1C(=O)c2cccc3c(NCCCCN4CCOCC4)ccc(c23)C1=O |  |  | ethyl acetate |  |  | absorption maximum | 428 nm |
| CNC(=O)C1CCCN(C(=O)C2CC3CCC2N3C(=O)[C@@H]2C[C@@H](O)CN2C(=O)NCc2cccc(Cl)c2F)C1 (mixture of isomers) | CYP3A4 (human) | inhibitor, time-dependent inhibition |  | 0.0686 µM, preincubated with NADPH, added: testosterone substrate | reference: negative control | remaining activity | 96.9% |
| Cc1ncsc1-c1ccc(C(C)NC(=O)C2CC(O)CN2C(=O)C(NC(=O)CCCCCCCCCCN2CCCC(Nc3ncc(Cl)c(Nc4ccccc4S(=O)(=O)C(C)C)n3)C2)C(C)(C)C)cc1 (stereo not drawn) | 22Rv1 | RNA-seq, measured: ZNF696 mRNA |  | concentration not given | reference: DMSO | log2 fold change | -1.47 |
| CN(O)C(=O)CCC(=O)NCCCN(CCCCN(CCCNC(=O)CCC(=O)N(C)O)C(=O)CCC(=O)N(C)O)C(=O)CCC(=O)N(C)O.[89Zr] |  |  | human plasma | 7 d, 37 °C |  | intact complex | 99.2 ± 0.8% |
| CCCCCCCCCCCCCCCOC(=O)/C=C/c1ccc(O)c(O)c1 |  |  | red blood cells | concentration not given | reference: Triton X-100 | hemolysis | 0.12% |
| CCCCN1C(=O)c2cccc3c(NCCN4CCOCC4)ccc(c23)C1=O |  |  | dichloromethane |  |  | fluorescence lifetime | 8.8 ns |
| [2H]C1([2H])CC[C@@H](C[C@@H](C#N)NC(=O)[C@@H]2[C@@H]3[C@H](CN2C(=O)[C@@H](NC(=O)C(F)F)C(C)(C)C)C3(C)C)C(=O)N1 |  |  | rat hepatocytes | scaled to liver |  | intrinsic clearance | 39.5 mL/min/kg |
| CC(C)C[C@H](NC(=O)[C@@H](CCCCNC(=O)[C@@H](Cc1ccccc1)NC(=O)CCCCCCCNC(=O)CN1CCN(CC(=O)O)CCN(CC(=O)O)CCN(CC(=O)O)CC1)NC(=O)[C@H](Cc1ccc(O)cc1)NC(=O)[C@H](CO)NC(=O)[C@H](Cc1c[nH]c2ccccc12)NC(=O)[C@H](Cc1c[nH]cn1)NC(=O)[C@@H]1CCC(=O)N1)C(=O)N[C@@H](CCCNC(=N)N)C(=O)N1CCC[C@H]1C(=O)NCC(N)=O [indium-111 labelled] |  |  | male athymic nude mice, DU-145 xenograft, tumour | intravenous, 0.037 MBq, 0.5 h |  | tumour uptake | 1.13 ± 0.36 %ID/g |
| O=C1C2CC3CC1CC(C(=O)N1CCN(c4ccc([N+](=O)[O-])c5ncccc45)CC1)(C3)C2 | Salmonella typhimurium | Ames test | TA98 | 0.05 µg/well, with S9 | reference: vehicle | revertant fold increase | 1.3 |

| Compound | target or system | test | test system | conditions | scale | endpoint | value |
| --- | --- | --- | --- | --- | --- | --- | --- |
| CN(CCNCc1ccncc1[O-])CCNCc1ccncc1[O-].[Cl-].[Fe+3] |  |  | mouse serum | 0.20 mM, 4 h, outcome no effect |  | relaxivity change | no effect |
| CCCC[C@H](OC(C)=O)c1ccccc1C(=O)O |  |  | beagle dogs, both sexes, whole blood | intravenous, 5 mg/kg single dose |  | AUC(0-t) | 4690 ± 505 ng·h/mL |
| COc1ccc2c(c1)CCn1c[n+]3c(c1-2)-c1ccc(OC)cc1CC3 |  |  | female NSG mice, blood | 6 mg/kg, day 14, 5 days per week |  | MCHC | 33.9 ± 1.52 g/dL |
| COC1CN([C@H]2CC[C@H]([C@@]3(C)Oc4c(Cl)cc(C(=O)NCc5c(SC)cc(C)[nH]c5=O)c(C)c4O3)CC2)C1 |  | RNA-seq, measured: SDC2 mouse homolog | mouse, HT-1376 xenograft, whole blood | dose not given | reference: vehicle | log2 fold change | 2.15 |
| CCCCN1C(=O)c2cccc3c(NCCCCCCCCN4CCOCC4)ccc(c23)C1=O |  |  | ethylene glycol |  |  | fluorescence lifetime | 8.1 ns |
| O=C(O)/C=C\c1cc2ccoc2cc1O[C@@H]1O[C@H](CO)[C@@H](O)[C@H](O)[C@H]1O |  | post-procedure stability | rat plasma | 200 ng/mL, 1 h, room temperature |  | accuracy | 87% |
| CC(C)(O)c1ncc([S@](N)(=O)=NC(=O)Nc2c3c(cc4c2CCC4)CCC3)s1 |  | measured: all system organ classes | healthy human subjects | oral, dose not given, 14 days, all active doses |  | share of subjects with TEAEs | 78% |
| CN1CCC[C@]1(C)/C=C/S(=O)(=O)NC(=O)Nc1c2c(cc3c1C(O)CC3)CCC2 (stereo partly drawn) |  |  | human, plasma | oral, 50 mg twice daily of parent drug, metabolite of dosed drug | reference: day 14 over day 1 | AUC(0-tau) accumulation ratio | 1.8 |
| C/C(N)=N/C(=N\S(=O)(=O)c1ccc(C(F)(F)F)cc1)N1C[C@H](c2ccccc2)C(c2ccc(Cl)cc2)=N1 |  |  | C57BL/6 mouse, heart | intravenous, 10 mg/kg |  | Tmax | 6 min |
| C=C[C@]1(C)C[C@@H](OC(=O)CSc2ccc(NC(=O)c3ccco3)cc2)[C@]2(C)[C@H](C)CC[C@]3(CCC(=O)[C@H]32)[C@@H](C)[C@@H]1O |  |  | M. gallisepticum-infected chickens, plasma | intramuscular, 40 mg/kg single dose |  | central volume (V1/F) | 4.86 L/kg |
| CN1CCC[C@]1(C)/C=C/S(=O)(=O)NC(=O)Nc1c2c(cc3c1CCC3)CCC2 |  | measured: glucose in urine, not related | human | oral, 12.5 mg twice daily, 14 days, multiple ascending dose |  | subjects with adverse event | 0% |
| CCCN(C)c1cc(C(F)(F)F)nc(SCCC(=O)NCc2ccco2)n1 |  |  | Wistar rat, urine and plasma | intraperitoneal, 25 mg/kg |  | renal clearance | 0.0097 mL/min |
| CC(C)C[C@H](NC(=O)[C@H](CCCNC(=N)N)NC(=O)[C@H](Cc1ccccc1)NC(=O)[C@H](Cc1ccccc1)NC(=O)[C@@H](NC(=O)[C@H](COP(=O)(O)O)NC(=O)[C@@H](N)COP(=O)(O)O)[C@@H](C)O)C(=O)N[C@@H](Cc1ccccc1)C(=O)N[C@@H](CC(N)=O)C(=O)N[C@@H](CCCNC(=N)N)C(=O)N[C@@H](C)C(=O)N[C@@H](CCCCN)C(=O)N[C@@H](CCCNC(=N)N)C(=O)N[C@@H](Cc1c[nH]cn1)C(=O)N[C@@H](Cc1c[nH]cn1)C(=O)NCC(=O)N[C@@H](Cc1ccc(O)cc1)C(=O)N[C@@H](CCCCN)C(=O)N[C@@H](CCCNC(=N)N)C(=O)N[C@@H](CCCCN)C(=O)N[C@@H](Cc1ccccc1)C(=O)N[C@@H](Cc1c[nH]cn1)C(=O)O |  | HPLC-UV | human saliva | 4 h, 37 °C, added: initial 1 mg/mL |  | peptide concentration | 0.539 mg/mL |
| CC(C)Cn1cc(Cc2cccc(OC(C)(C)C(=O)O)c2)c2cc(F)c(C(=O)N[C@@H](C)c3cccc(C(C)(C)C)c3)cc21 |  | metabolic stability | mouse, liver microsomes |  |  | half-life | > 60 min |
| CN1CCC[C@]1(C)/C=C/S(=O)(=O)NC(=O)Nc1c2c(cc3c1CCC3)CC=C2 |  |  | human, plasma | oral, 100 mg twice daily of parent drug, day 14, metabolite of dosed drug |  | AUC(0-tau) | 501 µg·h/mL |
| CN([O-])C(=O)CN1CCN(CC(=O)N(C)[O-])CCN(Cc2ccccn2)CC1.[89Zr+4] |  |  | mouse, blood | intravenous, 4 h |  | tracer uptake | 1.05 %ID/g |
| Cc1nc(N)nc2c1C(=O)N[C@@H](c1ccc(F)cc1-c1cccc(O[11CH3])n1)C2 |  | ex vivo biodistribution | healthy mice, plasma | 60 min post-injection, baseline, vehicle pre-treatment |  | SUV | 0.3 ± 0.1 |
| CCCCN1C(=O)c2cccc3c(NCCCCCN4CCOCC4)ccc(c23)C1=O |  |  | toluene |  |  | absorption maximum | 423 nm |
| C=C(NC(=O)c1csc(-c2nc3c(cc2O)-c2nc(cs2)C(=O)NC(C(C)O)C(=O)NC(=C(C)OC)c2nc(cs2)C(=O)NC2c4nc(cs4)C(=O)NC(COC(=O)c4c5c6c(cccc6n4O)COC(=O)C(OC4CC(C)(O)C(N(C)C)C(C)O4)C2OC5)c2nc-3cs2)n1)C(N)=O (stereo not drawn) |  |  | ICR mice, Streptococcus pneumoniae ATCC 49169 infected, immunocompromised, blood | intravenous, 4 mg/kg/day twice daily |  | half-life | 114 min |
| O=C(CN1CCN(CC(=O)NCc2ncccc2O)CCN(CC(=O)NCc2ncccc2O)CCN(CC(=O)NCc2ncccc2O)CC1)NCc1ncccc1O.[177Lu+3] |  |  | Sprague-Dawley rat, small intestine | intravenous, dose not given, 2 h |  | biodistribution | 0.228 ± 0.058 % injected dose/g |
| Cc1noc(C)c1Cn1cc(N2C(=O)CN(Cc3cccc(OS(=O)(=O)O)c3)C2=O)cn1 |  |  | Sprague-Dawley rat, male | oral, 100 mg/kg of parent drug, 8 h |  | plasma concentration | 3760 ng/mL |

For quick reference, copied from above:
| Compound | target or system | test | test system | conditions | scale | endpoint | value |
| --- | --- | --- | --- | --- | --- | --- | --- |
| COc1ccc2c(c1)C(=O)C(=C[O-])C2.[Na+] |  | chemical stability, HPLC-MS | borate buffered saline | pH 10.2, no N-acetyl-lysine |  | degradation rate constant | 0 h⁻¹ |
| C=CC(=O)Nc1cccc(Cn2ncc3cnc(Nc4cnn(CCOC)c4)nc32)c1 | YSK4 human | binding, KINOMEscan |  | 100 nM | lower = stronger binding | percent of control | 1.4% |
| C#CC(C)NC(=O)C(CC(C)(C)F)NC(c1ccc(-c2ccc(S(C)(=O)=O)cc2)cc1)C(F)(F)F (stereo not drawn) |  |  | PBS | 100 µM, 23 h, pH 7.45, 37 °C, added: GSH 5 mM |  | GSH adduct formation | 2% |
| Cc1cc(-c2ccc(C(=O)[C@@H]3CCCC[C@H]3C(=O)Nc3cnn4c3C(=O)NCC4)cc2)[nH]n1 |  |  | human, faeces | oral, 200 mg, 288-312 h, discharged subjects excluded | reference: dose | recovery of radioactivity per interval | 0.06% |
